Published values pooled from the literature.
Each numbered part is a random draw from the data of one study; scales do not carry over between parts.

Block 1
Target: RING finger protein unkempt homolog, zinc fingers 1-6, GST-SBP tag (UNK, Homo sapiens, UniProt Q9C0B0, residues 30-357)
Sequence of UniProt Q9C0B0 (30-357, looked up): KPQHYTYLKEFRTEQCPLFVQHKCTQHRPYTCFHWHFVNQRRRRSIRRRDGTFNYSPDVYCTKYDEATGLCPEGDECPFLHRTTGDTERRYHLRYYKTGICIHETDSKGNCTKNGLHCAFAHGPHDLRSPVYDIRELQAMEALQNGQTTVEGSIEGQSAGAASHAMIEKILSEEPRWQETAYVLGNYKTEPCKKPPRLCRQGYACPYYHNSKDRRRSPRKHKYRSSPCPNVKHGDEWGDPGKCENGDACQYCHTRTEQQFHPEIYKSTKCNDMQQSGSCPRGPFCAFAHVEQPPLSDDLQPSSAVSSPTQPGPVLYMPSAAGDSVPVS
Technique: RNA Bind-n-Seq
Molecule type: RNA
Sample: in vitro
Concentration: not given
Setting: RNA with constant flanks, ends assumed
Relative to: input RNA pool
Direction: higher = stronger binding
Constant ends, left off below: GGGAGUUCUACAGUCCGACGAUC … CAACAGAGGAUUGAGCAUCA
| Oligonucleotide | bound/input enrichment [ratio] |
| --- | --- |
| CGCAGAAGAUUAAAGGGUGAAAAUGGGAUGGAGGAUUGUGUCAUGGCCCUAGAAACCUUGUUCCGUGUUCUGCUUUCUCUUUGCAGACUUAUGGCUCCCUACACACCUUUUCUCACUGAA | 0.181 |
| AUUAGGCCUCUCUGGAGGCAUUACUUCCAGAAUACCCAGGGUCUCAUUUUUGUGGCCGACCGCAAUGAUCGUGAAAGAAUCCAGGAAGGAGCAGCUGUGCUGCAGAAAAUGCUUCUGGAA | 0.202 |
| UCUUCUCUUUUUGGAAUUUUAUCUCCUAGUAGUGAUCUCACACUUUCAAGUGUUCUCUGGGACCGAGAGAGAUCAAGCUUUUAUAGCCUGACGAGUUCAAACAUCAGUAAAUGGGAAUUA | 0.397 |
| CACCUAAGAGAUAAGAGCACCGACUGCUGUGGGGAUAAUGAUCCCAUUGACGUCUGUGAAACCGGCUCAAAGGUUCUUUCCCGUGGAGACGUGGUCCAUGUGAAGAUCCUUGGGACUUUG | 0.106 |
| CGAUGUCCAGUUACUGUCUGUGGAGAUGUGCAUGGGCAAUUUCAUGAUCUCAUGGAACUGUUCCGAAUUGGUGGCAAAUCACCAGAUACAAAUUACUUGUUUAUGGGAGAUUAUGUUGAC | 0.139 |
| GAUGUAAAAAAAAAAAAAAAAAAAAAAAAAAAAACACACACACAGAGGAAAGACGCUCUUCCGGUUUUGUUUUGUUUUUUUUUUUUGGUUUUGUUUUUUGUUUUUUUUACUCUAGGGAAA | 1.32 |
| AGCCUUCGAGGAAGAGGCCCUCCUCCUUCUUGGGCUUCUGAACCUGAACGCCCAUCCAUCCUCCGUGCAUCCGAACUGAAGGAGCUCGAUAAAUUUGAUAACCUAGAUGCUGAAGCAGAU | 0.201 |
| GCCAUUACAACUCUCCACAACCUUUUAUUACAUCAAGAAGGAGCUAAAAUGGCAGUGCGUUCCGCUGGUGGGCUGCAGAAAAUGGUUGCCUUGCUCAACAAAACAAAUGUUAAAUUCUUG | 0.22 |
| AUAUCUUCCGAAGAGGGAGAGACGGAAGCUAAUAAUCACAAGAAGUUGUCAGAAUUUGGAAUCCGAAAUGGCAGCCGGCUUCAAGCAGAUGACUUCCUCCAGGACUAUACUUUAUUGAUC | 0.137 |
| AUGAUGAAGCUCUCAGAAGAAAACCGACACCUGAGAGAUGAAGGCCUAAGGCUCAGAAAGGCCGCACAUUCGGAUAAACCUGGAUCCACCUCAGCCGUGUCCUUCAGAGAUAAUGUCACC | 0.148 |
| GUUUACUCUCAGAGCACAGCUCUUACUCAUAAGCAGUCUUAUUAUUCCAUUGCCAAAUGUGCCGCUGCCCUUACUCGAGCAUGCCCUAAAGAGGGACCAGCUGUAGUAGGUCAGUUUAUU | 0.191 |

Block 2
Target: Ras GTPase-activating protein-binding protein 1, full length (G3BP1, Homo sapiens, UniProt Q13283)
Sequence of UniProt Q13283 (whole entry, looked up): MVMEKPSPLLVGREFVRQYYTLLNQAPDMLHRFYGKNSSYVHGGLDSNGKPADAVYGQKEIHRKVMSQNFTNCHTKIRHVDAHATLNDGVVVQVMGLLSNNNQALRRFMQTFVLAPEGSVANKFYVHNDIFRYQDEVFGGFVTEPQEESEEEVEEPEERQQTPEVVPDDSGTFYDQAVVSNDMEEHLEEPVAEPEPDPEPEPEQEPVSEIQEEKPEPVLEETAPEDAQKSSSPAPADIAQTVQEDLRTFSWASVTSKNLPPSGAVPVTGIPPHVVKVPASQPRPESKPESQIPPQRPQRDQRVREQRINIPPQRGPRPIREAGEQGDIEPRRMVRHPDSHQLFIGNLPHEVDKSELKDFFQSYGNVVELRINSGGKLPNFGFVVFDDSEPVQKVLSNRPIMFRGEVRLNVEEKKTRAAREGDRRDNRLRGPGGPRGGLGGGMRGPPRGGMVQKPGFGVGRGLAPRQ
Technique: RNA Bind-n-Seq
Molecule type: RNA
Sample: in vitro
Concentration: 200 nM
Setting: whole 134-nt RNA, ends assumed
Together with: 150 mM LiCl
Relative to: input library
Direction: higher = stronger binding
All molecules: 7-deaza-guanosine replaces G
Constant ends, left off below: GGGAGUUCUACAGUCCGACGAUC … UGGAAUUCUCGGGUGUCAAGG
| Oligonucleotide | log2 enrichment |
| --- | --- |
| UAACUUUAGAGGAGGAUCUGAUGGAUAUGGCAGUGGACGUGGAAUUGGGGAUGGCUAUAAUGGGUAUGGAGGAGGACCUGGAGGUGGCAA | -0.51 |
| CCUGUGCUACACAUCGUAUGUACCGAAUCGGGUUUUUUUGGGUUUUUUUGGGUUUUUGGGAAAGUAUUAUGUUACGCCGUUCGGAUCUGC | 0.179 |
| UUUUAAAGUGUUCUCCACCACACUUGGGCAUUUAUCUGUUUCUUUAAAUGGCCUUCUCUGUUUCUUGUUUGCAGGCAGCUAUCAAUGGUG | 0.771 |
| GUCCUGUGCUACACAUCGUAUGUACCGAAUCGGGGCCCCCGGGCCCCCGGGCCCCCGGGAAAGUAUUAUGUUACGCCGUUCGGAUCUGCA | -2.1 |
| UCCUGUGCUACACAUCGUAUGUACCGAAUCAAACCCCCCCAAAUUUUUAAACCCCCAAAAAAGUAUUAUGUUACGCCGUUCGGAUCUGCA | 1.4 |
| UGGGAGGUGGAUUUUGUUUUUUUUUUUAGCUCAUUUCCAGGGGUGGGAAUUUUUUUUUAAUAUGUGUCAUGAAUAAAGUUGUUUUUGAAA | -0.177 |
| UCCUGUGCUACACAUCGUAUGUACCGAAUCGGAAAAAAGGAAAAAAGGGGAAAAAAGGGGAAAGUAUUAUGUUACGCCGUUCGGAUCUGC | -0.578 |
| ACCAUGCAGGUGGGCAUCUUUGGGAAGUGGGGCAAGGGGGGGAUAGGGAGGGGGGUAACACUUUGGGAACAGGUGGUCCCAGGUCGUUUC | -0.241 |
| GCAGGAAGUAAGAACAAAUGGAAAUGCUUCGGAUAGUGGCAGGGGUGGGGGUUGCUAAGGAAAGGGUGGGAUGGGAGUGGGUAAAGAGUU | -0.0796 |
| UUAAGACAGUCAUUUUAAAAUGGUGGCUGAAUUUCCCAACCCACCCCCAAACUAAACACUAAGUUUAAUUUUCAGCUCCUCUGUUGGACA | 0.632 |
| ACCAUGCAGGUGGGCAUCUUUGGGAAGUGGGGCAAGGGGGGGAUAGGGAGGGGGGUAACACUUUGGGAACAGGUGGUCCCAGGUCGUAUC | 0.0848 |

Block 3
Target: Histone acetyltransferase KAT6A, both winged helices, GST fusion (KAT6A, Homo sapiens, UniProt Q92794, residues 1-181)
Technique: protein binding microarray
Molecule type: double-stranded DNA, one strand shown
Sample: in vitro
Concentration: not given
Setting: 8-mer, flanks averaged, mean of 2 arrays, mostly near background
Relative to: not given
Direction: higher = stronger binding
Construct (chain): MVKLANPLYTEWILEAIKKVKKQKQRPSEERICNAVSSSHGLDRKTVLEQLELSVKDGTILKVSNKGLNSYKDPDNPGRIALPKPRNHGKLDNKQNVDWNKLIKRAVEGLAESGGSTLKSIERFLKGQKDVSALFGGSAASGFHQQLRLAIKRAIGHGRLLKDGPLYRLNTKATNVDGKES
| Oligonucleotide | E-score |
| --- | --- |
| AAATGCTG | -0.253 |
| GGAGGGGA | -0.0612 |
| ATCTATAA | 0.00556 |
| CATTGACC | 0.0145 |
| AACAGCAA | -0.195 |
| CAAGCTGC | -0.0521 |
| ATCAGTGA | -0.115 |
| CTTTGGCC | -0.0659 |
| ATTCCCTG | -0.197 |
| GCGCGAGC | 0.276 |
| AACATGCA | -0.0855 |
| CATACTAA | -0.0926 |
| CCATGTAA | 0.0711 |
| AATATAGT | -0.0184 |
| AAGACTAC | 0.0025 |
| CATGAACG | -0.0204 |
| AGGTCAAT | -0.168 |
| AGGCTCAA | -0.154 |
| AAGGCGCT | 0.247 |
| ATACTCGA | -0.0689 |
| CACGGTGC | 0.0578 |
| AGCCCGCT | 0.189 |
| ATACGTCA | 0.0863 |
| GGGACCAA | -0.124 |
| GCTAGGCC | 0.0219 |

Block 4
Target: RNA binding protein fox-1 homolog 2, RRM domain, GST-SBP tag (RBFOX2, Homo sapiens, UniProt O43251-10, residues 100-194)
Technique: RNA Bind-n-Seq
Molecule type: RNA
Sample: in vitro
Concentration: 365 nM
Setting: natural RNA segment, single round, ends assumed
Relative to: no-protein control
Direction: higher = stronger binding
Constant ends, left off below: GGGAGUUCUACAGUCCGACGAUC … UGGAAUUCUCGGGUGCCAA
Target sequence (chain): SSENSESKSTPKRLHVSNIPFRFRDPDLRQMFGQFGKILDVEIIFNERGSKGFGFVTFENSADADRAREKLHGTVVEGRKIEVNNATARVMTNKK
| Oligonucleotide | RBNS enrichment (R) |
| --- | --- |
| AGUGACUCCAGCCACCUGAGAGCGCCCAGGAGCACCAGGGGGGGCCAGAUGCGCUUCCUGAGCUCUUGGAUCAGUGCGCUGAAGGGCCGCACUUACAAGUGCCUGUCUGG | 0.25 |
| CAACAGUACCUCUCUUCUAAUGGGCUUCAGUCCUCCACUGAGGCAGAAUCUCUGCUGUGGGGAGAGAGAACAAACUGGAUGCUAUUGUGAGACGGGAGGGUGGAGUGAGA | 0.631 |
| ACCUGUACAAGAGACCCGGCCACUCCACUCCCUCCUGUGACCUGGACCUCUCCCUGACUUCCUAACACUUAUUAAUUUAUGAAACUGUUUUUCUCAGCGCAGUUUUGUUC | 0.907 |
| UAUAUUCCUGCAUAACUCAAUCUGAACCAAGGAUUGUAGUUUAGUUUUCCUCCUUGCCUUCCCUUCUGUGUGACCGACCCCUUGGCCAAAAAAAAACAAAAAGCAAAAAA | 0.905 |
| UACCCAACAACCCUGUGUAACAACUAAAGUAGAAUUAUCUCUCAUUUGUUGUUGUUUUUCCUCAAAAUUACCAAACAAAGCAAAAAAUACCCUUGUUUUUUAUAGUUGAG | 0.31 |
| UAAUAAAUUUUUCUGAAGUCUCAAAGUCUUCUCAACAGUCAAGAAACCAAGCAAGCAAGCAAGAGCAUCCAGUUGUGAUUAGGGUUAAAAUCAUCCAUCCUAAUUAAUGA | 0.584 |
| CCCUCAGGAUGCAGGGUGCUGGGUCUUCUGGUUUUGUUUGGGUUAAAACAGAACUUUCCCAUUAUCUGUAGGGAACAGAGUAACGCAUAGUCUUUAAAAAUCAGUCCCAG | 0.891 |
| CUGCAGUGAGAUCCCAGGAAGCUGGCACAUCUUGGAAGGUCCGUCCUGCUCGGCUUUUCGCUUGAACAUUCCCUUGAUCUCAUCAGUUCUGAGCGGGUCAUGGGGCAACA | 0.272 |
| AAUGUUGCUUUCUCUUCUAGUCUCGGGUAUGUUUAAAUGAUUCCCUUUUCUCACUCUAGCGCCAAUACUGGCCUGAAGGCUAGAUCCCCAGCGAAAUUCUUGUUCAGGCU | 0.302 |
| AAUCAGUUUUCUCCUUGAGGCUUGAUCUCCCAUUUCUCUCAUCCCAUUAUAGCUUUUCAUGUAGAUCUGAGGCCCAGGUUACUGUAAUUCUUUUUUUUCCAAUUUCCUUG | 0.985 |
| AAUGUAAAGACUCUGCCUUUGCGAAGCCAGCUGCAGUGCUGUAGGCCCCCAAGUUCCCUAGCAAGCUGCCAAACCAAAACGGGCACCACCAGCUCAGCUGAGGCAUCCCA | 0.388 |
| CCUGGUUCCUUUCCAGCUGGUUGUGGAAGUAAUGGCUAACAUCCUUCAGCUGACUUUGUCUACAAGGAUUAUUAGCAAAUUCUGUAGGAGCAAGCAUGUCUGACCUUAAC | 1.87 |

Some of these lines once more (block 1):
| Oligonucleotide | bound/input enrichment [ratio] |
| --- | --- |
| CGAUGUCCAGUUACUGUCUGUGGAGAUGUGCAUGGGCAAUUUCAUGAUCUCAUGGAACUGUUCCGAAUUGGUGGCAAAUCACCAGAUACAAAUUACUUGUUUAUGGGAGAUUAUGUUGAC | 0.139 |
| GAUGUAAAAAAAAAAAAAAAAAAAAAAAAAAAAACACACACACAGAGGAAAGACGCUCUUCCGGUUUUGUUUUGUUUUUUUUUUUUGGUUUUGUUUUUUGUUUUUUUUACUCUAGGGAAA | 1.32 |
| AGCCUUCGAGGAAGAGGCCCUCCUCCUUCUUGGGCUUCUGAACCUGAACGCCCAUCCAUCCUCCGUGCAUCCGAACUGAAGGAGCUCGAUAAAUUUGAUAACCUAGAUGCUGAAGCAGAU | 0.201 |
| GCCAUUACAACUCUCCACAACCUUUUAUUACAUCAAGAAGGAGCUAAAAUGGCAGUGCGUUCCGCUGGUGGGCUGCAGAAAAUGGUUGCCUUGCUCAACAAAACAAAUGUUAAAUUCUUG | 0.22 |
| AUAUCUUCCGAAGAGGGAGAGACGGAAGCUAAUAAUCACAAGAAGUUGUCAGAAUUUGGAAUCCGAAAUGGCAGCCGGCUUCAAGCAGAUGACUUCCUCCAGGACUAUACUUUAUUGAUC | 0.137 |
